# Assay results gathered from unrelated publications.
# Each numbered part is a random draw from the data of one study; scales do not carry over between parts.

# Sample 1
# Target: RING finger protein unkempt homolog, zinc fingers 1-6, GST-SBP tag (UNK, Homo sapiens, UniProt Q9C0B0, residues 30-357)
# Sequence of UniProt Q9C0B0 (30-357, looked up): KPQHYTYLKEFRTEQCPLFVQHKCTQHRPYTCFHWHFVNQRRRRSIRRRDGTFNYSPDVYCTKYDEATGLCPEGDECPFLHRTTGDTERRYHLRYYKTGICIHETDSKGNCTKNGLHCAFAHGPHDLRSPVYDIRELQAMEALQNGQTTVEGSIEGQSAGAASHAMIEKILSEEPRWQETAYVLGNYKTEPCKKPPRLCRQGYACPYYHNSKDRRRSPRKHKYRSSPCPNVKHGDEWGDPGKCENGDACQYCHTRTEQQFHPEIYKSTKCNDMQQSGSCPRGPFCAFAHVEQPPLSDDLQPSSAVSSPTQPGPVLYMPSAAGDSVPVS
# Technique: RNA Bind-n-Seq
# Form: RNA
# Matrix: in vitro
# Tested at: not given
# Notes: RNA with constant flanks, ends assumed
# Baseline: input RNA pool
# Direction: higher = stronger binding
# Shared flanks, not repeated: GGGAGUUCUACAGUCCGACGAUC … CAACAGAGGAUUGAGCAUCA
Oligonucleotide,bound/input enrichment [ratio]
GUUAUUUUAAUAAUCCCUUUAAAUUUUAUCUGUUGCUGUUACCUCUUGAAAUAUGAUUUAUUCCGAUUGCUAAUCCCACUCAUUCAGGAAAUGCCAAGAGGUAUUCCUUGGGGAAAUGGU,1.37
UGCUAACACUAGACAAAAAUCAACUGUAUUUGUAAAAAUUUACCUCAAACCAUUUAAUUUUACCGUGUGAUUAAUCCCAGGGCAUUUGGUAUGAACCAAAGUGCAUUCCUUUUAUAUGUG,1.29
GACAGGACUGCUUUGGAUACUAUCAAGGAACAAACACAAAGUGGUGGUGACCUUCGGAGCCGCUCACAGCCCACAGCCGCCAGCGCUCCUCAGAGCUUGAGCAGUCAACGGCGGCUGGUC,0.112
GCCCAGGCAGCGGCGGCGGCGGCGGCGGUUCCUCUCGGGUUACGGUGAAGAAUGUCAGCCACCCGCGUGGAUCAGAGACCUAAAGGGCAAGGAAAUAAAGUUUCAGUACAAAAUGGUUCG,0.22
AUAGAUGCCCUCGCUUCCUCCCUGUUUCCCGAUUCCUUCUGCCCCCACCCCCAGAUCUCCCCGCCGGUCACCCAGACCCGUCUGCACCCCACUUGCGAAUCUGCAGCCACAAAUCCUCUG,0.321
AUAUCUUAUUGCCAUAAACUCCAUGUGGUCCACAGAGACUUGAAACCAGAGAAUGCCGUCUUUUUUGAAAAACAAGGUCUUGUGAAGUUGACAGACUUUGGCUUCAGCAACAAAUUUCAG,0.101
ACAGAAAAUAGCAGUGCAGUGCUACUCCAGUGGCAUGAAAAGGCCUUAGCUGUAGGAGGACCCGGCUCCAUUAUAAGAGUUCUUACAGCAAGAAAGACUGUUUAAAAAAAAAUCCUGUUA,0.104
GCGGUCAUUUUCGGGCCUGAAGGGACCCCGUUUGAGGAUGGAACAUUUAAACUUACAACCGAAUUCACUGAAGAAUAUCCAAAUAAACCACCUACAGUUAGAUUUGUCUCUAAGAUGUUC,0.689
AAUGUUCUCGAUGCCAAUCUCUGCUUGAAAGGAGAAGACUUGGAUUCUCAGGUUGGAGUAACCGAUUUUUCCCUCUACCUUAAGGAUGUGCAGGAUCUUGAUGGUGGCAAGGAGCAUGAA,0.282
AUGCUUGGUUGUAAGACACCAAUAGGAAAACCAGCCACUGCAAAACUUUAAUAAUCAACAAACCGUUAUGGAAAAUUCGGUCACGUAAUUACUCUCAUCGAAGGACUCAUUACAACAAAC,1.3
AGCAAGAAGAAUAACAUAUUCGCCCAGUUCCGGAAGAAUGACCGAGACAGACAGAAGCUGACCGAGACAGUGGUGAGACAGCUCAGAGGCUUGGUGACUGGUAUGUCCCAGCACACGUAG,0.168

# Sample 2
# Target: Histone acetyltransferase KAT6A, winged helix 1, GST fusion (KAT6A, Homo sapiens, UniProt Q92794, residues 1-85)
# Technique: protein binding microarray
# Form: double-stranded DNA, one strand shown
# Matrix: in vitro
# Tested at: not given
# Notes: 8-mer, flanks averaged, mean of 2 arrays, mostly near background
# Baseline: not given
# Direction: higher = stronger binding
# Target sequence (chain): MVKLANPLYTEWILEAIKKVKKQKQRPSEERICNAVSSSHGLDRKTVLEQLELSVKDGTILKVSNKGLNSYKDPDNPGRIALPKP
Oligonucleotide,E-score
GTTGGCAA,-0.262
GGTGAAGA,0.0224
GCATCGCC,0.246
CTTTAAAG,-0.113
CAAAATGA,-0.0993
CCGGTTAC,0.303
ACTGACTG,-0.04
GCTGCACC,0.0718
ATTTCGGG,-0.101
ATGGTCAG,-0.119
CCACACGG,0.214
GCATCTAA,-0.0709
ATGAATGA,-0.124
CTCCTTAA,-0.0663
CCGAATAC,0.164
CAAAACAA,-0.148
CATGTGTA,-0.0846
TAGTGATA,-0.0878
CAAAAAAC,-0.187

# Sample 3
# Target: Fragile X messenger ribonucleoprotein 1, C-terminal low-complexity region (Fmr1, Mus musculus, UniProt P35922)
# Technique: RNA Bind-n-Seq
# Form: RNA
# Matrix: in vitro
# Tested at: 200 nM
# Notes: whole 134-nt RNA, ends assumed
# Added: 150 mM LiCl
# Baseline: input library
# Direction: higher = stronger binding
# Each molecule: 7-deaza-guanosine replaces G
# Shared flanks, not repeated: GGGAGUUCUACAGUCCGACGAUC … UGGAAUUCUCGGGUGUCAAGG
Oligonucleotide,log2 enrichment
UCAAGUCCUGUGCUACACAUCGUAUGUACCGAAUCGGAAAAGGAAAAGGAAAAGGAAAGUAUUAUGUUACGCCGUUCGGAUCUGCACUUC,-0.534
CCUGUGCUACACAUCGUAUGUACCGAAUCGGGGAAAAAAGGGAAAAAAGGGGAAAAAAGGAAAGUAUUAUGUUACGCCGUUCGGAUCUGC,0.462
GGAGGAAGUAAAAACAAAUGGAAAUGCUUCGGAUAGUGGCAGGGGUGGGGGUUGCUAAGGAAAGGGUGGGAUGGGAGUGGGUAAAGAGUU,1.65
UGUGCUACACAUCGUAUGUACCGAAUCGGGGUUUUUGGGGUUUUUUUGGGGAAAAAAAGGGGAAAGUAUUAUGUUACGCCGUUCGGAUCU,-0.119
CACAGACAACACGCACCCACACAGACACAGAGGGAAGGGGUUGGGAUGGGGACAGGGUGCACAGCAGGGCGGGGUAGGACACCAGCCCCU,0.308
UUUCUAGCUGGACCAGUCCGGUACGCUCCGGGCCUCACCGAGGAAGUCCCACCCUGCAGGGGAACCGACUCUGGCCGGCCCUAACCCCUC,0.701
CUCAAGUCCUGUGCUACACAUCGUAUGUACCGAAUCGGGUUGGGUUGGUUGGGGAAAGUAUUAUGUUACGCCGUUCGGAUCUGCACUUCC,-0.427
UCAAGUCCUGUGCUACACAUCGUAUGUACCGAAUCGGUUUUGGUUUUGGUUUUGGAAAGUAUUAUGUUACGCCGUUCGGAUCUGCACUUC,-1.47
UGUGCUACACAUCGUAUGUACCGAAUCGGGGCCCCCCCGGGGCCCCCCCGGGCCCCCCCGGGAAAGUAUUAUGUUACGCCGUUCGGAUCU,-1.84
UGGGAGGUGGAUUUUGUUUAUUUUUUUAGCUCAUUUCCAGGGGUGGGAAUAUUUUUUUAAUAUGUGUCAUGAAUAAAGUUGUUUUUGAAA,0.184
CAAGUCCUGUGCUACACAUCGUAUGUACCGAAUCGGGGAGGGGAGGGGAAAGGGGAAAGUAUUAUGUUACGCCGUUCGGAUCUGCACUUC,0.432

# Sample 4
# Target: RNA binding protein fox-1 homolog 2, RRM domain, GST-SBP tag (RBFOX2, Homo sapiens, UniProt O43251-10, residues 100-194)
# Technique: RNA Bind-n-Seq
# Form: RNA
# Matrix: in vitro
# Tested at: 365 nM
# Notes: natural RNA segment, single round, ends assumed
# Baseline: no-protein control
# Direction: higher = stronger binding
# Shared flanks, not repeated: GGGAGUUCUACAGUCCGACGAUC … UGGAAUUCUCGGGUGCCAA
# Residues (chain): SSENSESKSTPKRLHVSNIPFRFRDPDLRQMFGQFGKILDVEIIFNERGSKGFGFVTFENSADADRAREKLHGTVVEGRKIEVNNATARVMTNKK
Oligonucleotide,RBNS enrichment (R)
ACACCCCAGCUCACACAGCAAAAACAAUGGACAGGCCCAGAGGCUGAAGCAAACAGUGUCCCUUCUGGCUGUGUUGGAGCCUCCCCAGUAACCACCUAUUUAUUUUACCU,0.9
CCUUAGGCUCACAGUUCAGAUCUGCAUGCAUUGCUUGCAUUGUUCUGGUAUCUGAAUGUUGAUUCCUCAUUUAGGAGUUCAGCAUUAAUUUCCAAAAUUUUCAUGGGGCU,0.818
GGAUGCUGUGCUACGUGUGAAAUCUGUCUUUGCGGGGCCUGUCUCAGUGAUUCGCUUUUGGUAUUUGUUUGUAGCUUUCCUGGAAGUCAAAUAAAUGUUUCCCCCACUCC,0.332
AGAUCCAGGUGGGUGAGGGCAGGAGGCCCCUGCGGAGGCAGCGUGGAUCUGCCCACACAUAGGCUACUGGAAUAGUUUAACCCAGCAACUUUCCUUUUUAUAAAACAACA,0.687
CCACAUGUGCACAGAGCCAGCUGCAGAGGGCACCACAAGGGCACCUUAACCAGCUCCUGAUCUCAAGAACACUAAAAGGCUAGCCGUUGUCUGUCUAGAGUGAAUACUUC,0.229
CAAAGAAAUACAGAUAUAUCUUAAAAAAAAAAGCAUUUUGUAUUAAAGAAUUGAAUUCUGAUCUCAAGCUCUCCCUGGUCUCUCCUUCUCUCCUGGGCCCUCCUGUCUCG,0.817
UGAUGCUGUGAAGCCUGCCCCUGUGUGUAUCUGUUCUCUCACCUCCCUAGCACUGUAAGCAGCGGUGCCUCUUGUAGCAUGUGUGUUUGUUUUUUAAUGUUUCAUGACUC,4.52
CAGGUAGAUAAUUUUUCAAAUGUGAAUUAUCUUUUGUGUCUAUAUUGAUAGCUCUUAAAGGAGUGAAAAUCUAAAAUAGUAAAUUUCAAUGUUAAGUGUCUGCUUUAUGG,0.591
UGUUUUGUUCCCUAUUAUAGAGUAUAUGCAAAAUUUGUCCCAGAUCUUCUUUGACUUUGUGCUUGCUCUUUAAAGUGUCCUAAGAAAAUUAAUUUUUUCAGGUAUUUUUC,0.55
UUCGCAUGCUGAGUACUGGACCUCGGACCAGAGCCAUGUAAGAAAAGGCCUGUUCCCUGGAAGCCCAAAGGACUCUGCAUUGAGGGUGGGGGUAAUUGUCUCUUGGUGGG,1.68
UUACCUUCAGCUGUCUCAGGAAGACCUUGCUGUCCCAGAGUGUACUGAGAGCAUCACUAUCAGGCAUGUGUUACCAAAAAACUGGCAGAAUCAGAAACUCAUUUACAUAA,2.02
GCCUCGUCACCUCCAGUUGGGUGCCUCUGGGUUCCCACUGGCUCUGCCCAGGUGGGGUGGGGUGGCCCAGGCAGCAGAAGGUUCCCUGAGGUCCCAGAGCCUGUUCCGUU,0.166
